Measured values collected from several papers.
Protocols differ between the studies behind these lines. ± marks the error that the study gave. In brackets after ≈: the same amount, converted by molar mass.

| Compound | assay | test system | setting | scale | measurement | value |
| --- | --- | --- | --- | --- | --- | --- |
| O=C(Nc1nc2cccc(-c3ccc(CN4CCS(=O)(=O)CC4)cc3)n2n1)C1CC1 | item: vomiting | rheumatoid arthritis patients | oral, 150 mg once daily, 4 weeks, any relatedness |  | treatment-emergent adverse events | 0% |
| NC(=O)N1c2ccccc2CC(O)c2ccccc21 (stereo not drawn) | population PK modelling | human patients, plasma | weight-scaled, estimated exponents |  | clearance | 2.85 L/h |
| C=CC(=O)N(C)CCOc1c(N)ncnc1-c1cc(F)cc(NC(=O)c2ccc(C3CC3)cc2F)c1C |  | human, whole blood | oral, 600 mg single dose |  | AUC | 1160 ng·h/mL |
| OC[C@H]1O[C@@H](c2cc(Cc3ccc(C4CC4)cc3)c(Cl)c3c2CCO3)[C@H](O)[C@@H](O)[C@@H]1O |  | healthy Korean adults, fasted, plasma | oral, 0.3 mg single dose, fixed-dose combination tablet, with: co-administered drug 50 mg |  | apparent clearance CL/F | 8540 ± 2340 mL/h |
| C1=C/COCc2cc(ccc2OCCN2CCCC2)Nc2nccc(n2)-c2cccc(c2)COC/1 |  | rat plasma | 600 ng/mL, 24 h, 4 °C | baseline: nominal concentration | stability relative error | 6.15% |
| Cc1cc(NC2CCN(C(=O)OC3CCN(C(=O)/C=C/CN(C)C)C3)CC2)n2ncc(C(C)C)c2n1 (stereo not drawn) | Phase I dose escalation CTCAE v4.0, item: decreased appetite | patients with advanced solid tumours | dose not given, QD dosing any grade |  | patients with adverse event | 16% |
| C[C@@H](Nc1cc(F)cc(F)c1)c1cc(C(=O)N(C)C)cc2c(=O)cc(N3CCOCC3)oc12 |  | human, plasma | oral, 240 mg, day 1 single dose |  | t1/2 geometric mean | 3.52 h |
| C[C@@H](NC(=O)N1C(=O)[C@H](Cc2ccnc(N)c2)[C@H]1C(=O)O)C1CCCCC1 | UPLC-MS/MS | healthy adult Chinese volunteers, plasma | continuous intravenous infusion, 1.5 mg/kg/h, day 6 of 5-day infusion, mean |  | Vd | 0.677 L/kg |
| N#Cc1ccc2c(c1)[C@H]1CCCN(C(=O)c3ccc4[nH]cnc4c3)[C@H]1C2 |  | human | 360 mg, end of trial | baseline: baseline | ACTH level change | 0.3 pmol/L |
| COc1cccc(-c2n[nH]c(SCc3ccccn3)n2)c1OC |  | Sprague-Dawley rats, male | diet, 30 mg/kg/day, terminal, 90-day subchronic study |  | serum total bilirubin | 0.1 mg/dL |
| Cn1cc(Nc2nccc(-c3ccc4c(c3)CN(C3COC3)CC[C@H]4NC(=O)c3cn(C(C)(C)C)nn3)n2)cn1 |  | human, whole blood | 300 mg twice daily, day 7 | baseline: pre-dose baseline | NKT cell count change | -16% |
| O=C(O)CCC(=O)O.[2H]C([2H])([2H])Oc1cc(C)c2[nH]ccc2c1CN1CC[C@@H](C2CC2)C[C@H]1c1ccc(C(=O)O)cc1 | multiple ascending dose | healthy Chinese subjects | 125 mg twice daily |  | subjects with hyponatraemia | 0% |
| C[Si](C)(C)O[Si](C)(C)O[Si](C)(C)C |  |  | 2.7 to 6.3 µg/L, 20.8 °C |  | log KAW | 3.04 |
| O=C1NCCc2nc(OCc3cccc(F)c3)ccc21 | item: Convulsions | Sprague-Dawley rat male | oral, 100 mg/kg, 0 min | baseline: baseline, direction not given | Irwin test score | 0 |
| CNC(=O)c1ccc(-c2cnc3ncc(Cc4ccc5ncccc5c4)n3n2)cc1F | item: Vomiting | hepatocellular carcinoma patients | oral, 600 mg twice daily, expansion cohort, grade 3-4 |  | patients with adverse event | 9% |
| COc1ccc(NC(=O)CN2CCOCC2)c([N+](=O)[O-])c1 |  | aqueous buffer | pH 7.4 |  | thermodynamic solubility | 157 µM (≈ 46.5 µg/mL) |
| CCCCC[C@H]1CC[C@H](c2ccc(OCC)c(F)c2F)CC1 |  | rat, fetus | 10 ng/mL in perfusate, low dose, mixture of 21 LCMs |  | median fetal accumulation | 1.04 ng/g |
| COc1ccnc(C(=O)N[C@@H](CO)C(=O)O[C@@H](C)[C@H](O)[C@@H](Cc2ccccc2)C(=O)O)c1O |  | bovine milk | -18 °C |  | storage stability of residues | 3 months |
| O=c1c2ccccc2oc2ccccc12 |  | tricaprin-tricaprylin mixture | 60 °C, tricaprin fraction 0.77 |  | solubility | 0.0693 mole fraction |
| CNC(=O)c1ccc(-c2cnc3ncc(Cc4ccc5ncccc5c4)n3n2)cc1F |  | healthy human subjects | oral, 400 mg, Dizziness, all grades, all causality, with: rifampicin 600 mg/day |  | subjects with adverse event | 7.7% |
| CC(=O)c1cccc(NC(=O)CSc2nnc(-c3cc4ccccc4cc3O)n2C)c1 |  | aqueous buffer | pH 7.4 |  | thermodynamic solubility | < 7.14 µM |

| Compound | assay | test system | setting | scale | measurement | value |
| --- | --- | --- | --- | --- | --- | --- |
| CCCC[C@H]1CC[C@H](c2ccc(C#N)cc2)CC1 |  | Sprague-Dawley rat, female, fetus | 5000 ng/mL in perfusate, 50 (unit not given), high dose, mixture of 21 LCMs |  | median fetal accumulation | 1.65 ng/g |
| Nc1ncnc2c1ncn2[C@H]1C[C@@H]2OP(=O)(O)OC[C@H]3O[C@@H](n4cnc5c(N)ncnc54)C[C@@H]3OP(=O)(O)OC[C@H]2O1 |  | non-tumor-bearing mice, blood | intravenous, 1 mg/kg, toxicity study |  | plateletcrit | 0.11 ± 0.09% |
| CCCCc1ccc(C#Cc2ccc(OCC)cc2)cc1 |  | rat, placenta | 1000 ng/mL in perfusate, middle dose, mixture of 21 LCMs |  | median placental accumulation | 3.28 ng/g |
| c1ccc(-c2nc(N3CCC(c4ccccn4)C3)c3ccccc3n2)nc1 (stereo not drawn) |  | Japanese Pharmacopoeia disintegration test solution 2 | pH 6.8 |  | kinetic solubility | 80 µg/mL (≈ 226 µM) |
| COc1cc(C)c(/C=C/C(C)=C/C=C/C(C)=C/C(=O)O)c(C)c1C | shake-flask | Cremophor ELP | 37 °C, water up to 0.5% w/w |  | thermodynamic solubility | 1.58 ± 0.08 mg/g |
| O=C(CCCCCCC(=O)Nc1ccc(CC[18F])cc1)NO |  | athymic nu/nu male mice, LNCaP xenograft, large intestine | intravenous, 0.5 h |  | tissue uptake | 4.3 ± 1.2 %ID/g |
| CCN1CCN(Cc2ccc(NC(=O)c3ccc(C)c(NC(=O)c4cncc(-c5cccs5)c4)c3)cc2C(F)(F)F)CC1 |  | C57BL/6 mice, epithelial lining fluid | intraperitoneal, 30 mg/kg |  | extrapolated AUC share | 8.4% |
| CCc1cc(C(=O)NC)c2nccc(N3CCc4c(cc(Cn5ccnc5)cc4-c4cn(C)nc4C(F)(F)F)C3=O)c2c1 |  | Sprague Dawley rats | oral, 100 mg/kg twice daily, 7 days |  | blood MCHC | 306 ± 7.33 g/L |
| CC(C)(C(=O)N1CCOc2c(C#N)cncc2C1)C(F)F | item: Restlessness | human | oral, 20 mg once daily, 14 days, multiple ascending dose |  | subjects with adverse event | 0% |
| CCO[C@H]1CCN(Cc2c(OC)cc(C)c3[nH]ccc23)[C@H](c2ccc(C(=O)O)cc2)C1 |  | PNH patients, active haemolysis | oral, 50 mg, 4 weeks, treatment |  | incidence of oropharyngeal pain | 0% |
| CNCCOC12CC3(C)CC(C)(CC(Cn4ncc(-c5ccc(N6CCc7cccc(C(=O)Nc8nc9ccccc9s8)c7C6)nc5C(=O)O)c4C)(C3)C1)C2 |  | beagle dog, male, anaesthetised | intravenous bolus, 0.03 mg/kg, 75 min | baseline: baseline | heart rate change | -5% |
| C=CC(=O)N1CCC(Oc2cc3c(Nc4ccc(Cl)c(Cl)c4F)ncnc3cc2OC)CC1 |  | male Sprague-Dawley rats, plasma | oral, 2 mg/kg |  | AUC(0-inf) | 3820 ± 495 ng·h/mL |
| CN1CC[C@@H](NC(=O)Nc2ccc(C#N)cc2)C[C@@H]1c1nc2ccccc2[nH]1 |  | human cancer patients, plasma | oral, population PK base model |  | intercompartmental clearance Q/F | 2.13 L/h |
| C[C@@H](c1ccc2nccn2c1)n1nnc2ncc(-c3cnn(C)c3)nc21 | item: any AE | EGFR-mutant MET-altered NSCLC patients | oral, dose not given, AE grade ≥3, all |  | incidence of treatment-related AEs | 28% |
| C[C@H]1O[C@@H](O[C@H]2[C@@H](O)C[C@H](O[C@H]3[C@@H](O)C[C@H](O[C@H]4CC[C@@]5(C)[C@H](CC[C@@H]6[C@@H]5C[C@@H](O)[C@]5(C)[C@@H](C7=CC(=O)OC7)CC[C@]65O)C4)O[C@@H]3C)O[C@@H]2C)C[C@H](O)[C@@H]1O | item: Nausea | human | oral, 0.25 mg |  | participants with TEAE | 3.4% |
| CCN(CC)Cc1ccc2cc(COC(=O)Nc3ccc(C(=O)NO)cc3)ccc2c1 |  | rat plasma | 800 ng/mL, three freeze-thaw cycles | baseline: nominal concentration | stability relative error | 90.3% |
| CC(C)[C@@H](CN1CC[C@@](C)(c2cccc(O)c2)[C@@H](C)C1)NC(=O)[C@H]1Cc2ccc(O)cc2CN1 |  | rat, brain | intraperitoneal, 10 mg/kg |  | AUClast | 24200 ng·h/g |
| C#C[C@]1(O)CC[C@H]2[C@@H]3CCC4=CC(=O)CC[C@@H]4[C@H]3CC[C@@]21C | radioimmunoassay | HIV-infected women on protease inhibitor therapy, serum | oral, 0.35 mg daily, steady state, interval 0-72 h, geometric mean |  | AUC | 37.8 ng·h/mL |
| CC1(C)C(/C=C/C2=C(Cl)C(=C/C=C3\N(CCCCCC(=O)O)c4ccccc4C3(C)C)/CCC2)=[N+](CCCCCC(=O)O)c2ccccc21 |  | water |  |  | molar absorption coefficient | 57500 M⁻¹ cm⁻¹ |
| CC(C)c1nc(N(C)S(C)(=O)=O)nc(-c2ccc(F)cc2)c1/C=C/[C@@H](O)C[C@@H](O)CC(=O)O | item: phlebitis | healthy men | oral, dose not given, 8 days, treatment-emergent, crossover trial |  | subjects with adverse event | 0% |
| CC(F)(F)c1nc2nc(CO)cc(Nc3ccc(S(F)(F)(F)(F)F)cc3)n2n1 | LC-MS/MS | malaria patients, plasma | oral, 250 mg of parent drug |  | half-life, metabolite | 101 h |

A few entries again:
| Compound | assay | test system | setting | scale | measurement | value |
| --- | --- | --- | --- | --- | --- | --- |
| C[C@H]1O[C@@H](O[C@H]2[C@@H](O)C[C@H](O[C@H]3[C@@H](O)C[C@H](O[C@H]4CC[C@@]5(C)[C@H](CC[C@@H]6[C@@H]5C[C@@H](O)[C@]5(C)[C@@H](C7=CC(=O)OC7)CC[C@]65O)C4)O[C@@H]3C)O[C@@H]2C)C[C@H](O)[C@@H]1O | item: Nausea | human | oral, 0.25 mg |  | participants with TEAE | 3.4% |
| CC(=O)c1cccc(NC(=O)CSc2nnc(-c3cc4ccccc4cc3O)n2C)c1 |  | aqueous buffer | pH 7.4 |  | thermodynamic solubility | < 7.14 µM |
